Measured values of several laboratories.
A part holds a random share of what one study measured.

Set 1
Target: Myc proto-oncogene protein, bHLH-zipper, MAX partner unstated (MYC, Homo sapiens, UniProt P01106, residues 368-449)
Sequence of UniProt P01106 (368-449, looked up): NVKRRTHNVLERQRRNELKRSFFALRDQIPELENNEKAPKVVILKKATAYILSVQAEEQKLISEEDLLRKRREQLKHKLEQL
Method: protein-binding microarray
Molecule type: double-stranded DNA, one strand shown
Sample: in vitro
Concentration: not given
Setting: k-mer, scored over probes, only values ≥0.25
Reading: higher = stronger binding
| Oligonucleotide | E-score |
| --- | --- |
| ACCGCGAG | 0.26 |
| AGCATGAT | 0.256 |
| CCACGTCC | 0.308 |
| CAGGCACG | 0.308 |
| ATGTGCAC | 0.362 |
| CCCAACCG | 0.261 |
| ATGCGTTG | 0.279 |
| GTGCTTCA | 0.28 |

Set 2
Target: Replicase polyprotein 1ab, main protease (rep, Severe acute respiratory syndrome coronavirus 2, UniProt P0DTD1)
Effect on: enzyme activity
Mode: inhibitor
Concentration: 20 µM
Setting: primary screen
| Compound | inhibition |
| --- | --- |
| CCOC(=O)C1=C(N)Oc2ccc(Br)cc2C1C(C#N)C(=O)OCC (stereo not drawn) | 31.8% |
| Oc1ccc2c3c1O[C@H]1c4[nH]c5ccccc5c4C[C@@]4(O)C(C2)N(CC2CC2)CC[C@]314 | 33.8% |
| COc1ccc2[nH]c3c(S)ncnc3c2c1 | 69.9% |
| NCc1ccccc1CC(=O)N[C@@H]1C(=O)N2C(C(=O)O)=C(CSc3nnnn3CC(=O)O)CS[C@H]12 | 40.2% |
| Nc1ncc2c(n1)CC(c1ccco1)CC2=O (stereo not drawn) | 47.5% |

Set 3
Target: Replicase polyprotein 1ab, polymerase (rep, Severe acute respiratory syndrome coronavirus 2, UniProt P0DTD1)
Effect on: enzyme activity
Mode: inhibitor
Concentration: 20 µM
| Compound | inhibition |
| --- | --- |
| COc1cc(OC)nc(O[C@H](C(=O)O)C(OC)(c2ccccc2)c2ccccc2)n1 | -3.56% |
| CC(C)=CCc1c(O)cc(O)c2c(=O)c(O)c(-c3ccc(C(F)(F)F)cc3)oc12 | -6.06% |
| C=C1/C(=C\C=C2/CCC[C@]3(C)[C@@H]([C@H](C)/C=C/[C@H](C)C(C)C)CC[C@@H]23)C[C@@H](O)C[C@@H]1O | -2.38% |
| NCCCC[C@H](N[C@@H](CCc1ccccc1)C(=O)O)C(=O)N1CCC[C@H]1C(=O)O | 18.2% |
| CCN1CCC[C@H]1CNC(=O)c1c(OC)ccc(Br)c1OC | 4.77% |
| CN1CCN(CCCN2c3ccccc3Sc3ccc(S(=O)(=O)N(C)C)cc32)CC1 | 2.99% |
| COc1cc(OC)c(/C=C/S(=O)(=O)Cc2ccc(OC)c(OP(=O)(O)O)c2)c(OC)c1 | 2.45% |
| Cc1cc(Nc2ncnc3ccc(NC4=NC(C)(C)CO4)cc23)ccc1Oc1ccn2ncnc2c1 | 2.19% |
| CC(C)(C)N1CCC(c2ccccc2)(c2ccccc2)CC1 | 2.26% |
| Cn1cc(-c2ccncc2)c(-c2ccc(OCc3ccc4ccccc4n3)cc2)n1 | 6.68% |
| COc1ccccc1N1CCN(CC(O)COc2cc(OC)c(OC)c(OC)c2)CC1 (stereo not drawn) | -4.01% |
| O=C(O[C@H]1C[N+]2(CCCOc3ccccc3)CCC1CC2)C(O)(c1cccs1)c1cccs1 | -1.4% |
| CCCCOC(=O)c1cc2c(cn1)[nH]c1ccccc12 | -2.74% |
| CO[C@@H]1COCC[C@@H]1N[C@@H]1CC[C@@](C(=O)N2CCc3ncc(C(F)(F)F)cc3C2)(C(C)C)C1 | 0.44% |
| NS(=O)(=O)c1cc2c(cc1C(F)(F)F)NC(Cc1ccccc1)NS2(=O)=O (stereo not drawn) | -4.36% |
| CNCCN(C)Cc1c[nH]nc1-c1ccc(O[C@H]2C[C@H](OCCC3CCOCC3)C2)cc1 | -0.83% |
| CCCCn1c(=O)c2[nH]c(C34CC5CC(CC3C5)C4)nc2n(CCCO)c1=O | -7.81% |
| CC(C)Oc1ccc2c(=O)c(-c3ccccc3)coc2c1 | 7.35% |
| Cc1ccc(NC(=O)c2ccc(CN3CC[C@H](N(C)C)C3)c(C(F)(F)F)c2)cc1Nc1nccc(-c2cncnc2)n1 | -7.73% |
| CCNC(=O)C#Cc1ccc2c(C(=Nc3ccc(CN(C)C)cc3)c3ccccc3)c(O)[nH]c2c1 | -1.72% |
| CN1CCN(c2nc(C3=C(c4c[nH]c5ccccc45)C(=O)NC3=O)c3ccccc3n2)CC1 | 0.33% |
| CN[C@H](CC(C)C)C(=O)N[C@H]1C(=O)N[C@@H](CC(N)=O)C(=O)N[C@H]2C(=O)N[C@H]3C(=O)N[C@H](C(=O)N[C@H](C(=O)O)c4cc(O)cc(O)c4-c4cc3ccc4O)[C@H](O[C@H]3C[C@](C)(N)[C@@H](O)[C@H](C)O3)c3ccc(c(Cl)c3)Oc3cc2cc(c3O[C@@H]2O[C@H](CO)[C@@H](O)[C@H](O)[C@H]2O[C@H]2C[C@](C)(NCc3ccc(-c4ccc(Cl)cc4)cc3)[C@@H](O)[C@H](C)O2)Oc2ccc(cc2Cl)[C@H]1O | 98.9% |
| CCOC(=O)[C@@]1(CCCCCCOc2ccc(Cl)cc2)CO1 | -2.85% |
| c1ccc(C(O[C@@H]2CCCN(CCc3ccc4c(c3)OCO4)C2)c2ccccc2)cc1 | -6.67% |
| N#C/C(=C\c1ccc(O)c(O)c1)C(N)=O | 1.84% |

Set 4
Cell line: HEK-293T
Effect on: pseudovirus infection
Method: FDA-approved drug library screen
Organism: VSV pseudotyped with SARS-CoV-2 spike
Concentration: 10 µM
Time: 16 h
Reference: vehicle-treated
| Structure (SMILES) | GFP-positive cells [%] |
| --- | --- |
| OCCN1CCN(CCCN2c3ccccc3Sc3ccc(Cl)cc32)CC1 | 17.9 |
| C[C@H]1CN(C[C@H](Cc2ccccc2)C(=O)NCC(=O)O)CC[C@@]1(C)c1cccc(O)c1 | 73.3 |
| O=C(O)c1ccc(-n2nc(-c3ccccc3O)nc2-c2ccccc2O)cc1 | 72.6 |
| Cc1cn([C@H]2C[C@H](N=[N+]=[N-])[C@@H](CO)O2)c(=O)[nH]c1=O | 105 |
| Clc1ccc(C(c2ccccc2Cl)C(Cl)Cl)cc1 (stereo not drawn) | 72.8 |

Set 5
Target: Interferon regulatory factor 3, full length, phosphomimetic (IRF3, Homo sapiens, UniProt Q14653, residues 1-427, S386D/S396D/S398D/S402D/T404D/S405D)
Method: protein-binding microarray
Molecule type: double-stranded DNA, one strand shown
Sample: in vitro
Concentration: 2540 nM top
Setting: 60-bp whole probe
Together with: salmon DNA 0.4 mg/ml
Reference: random background probes
Reading: higher = stronger binding
All sequences stand within: GCCTAGCAC … GTCTTGATTCGCTTGACGCTGCTG
Residues (chain): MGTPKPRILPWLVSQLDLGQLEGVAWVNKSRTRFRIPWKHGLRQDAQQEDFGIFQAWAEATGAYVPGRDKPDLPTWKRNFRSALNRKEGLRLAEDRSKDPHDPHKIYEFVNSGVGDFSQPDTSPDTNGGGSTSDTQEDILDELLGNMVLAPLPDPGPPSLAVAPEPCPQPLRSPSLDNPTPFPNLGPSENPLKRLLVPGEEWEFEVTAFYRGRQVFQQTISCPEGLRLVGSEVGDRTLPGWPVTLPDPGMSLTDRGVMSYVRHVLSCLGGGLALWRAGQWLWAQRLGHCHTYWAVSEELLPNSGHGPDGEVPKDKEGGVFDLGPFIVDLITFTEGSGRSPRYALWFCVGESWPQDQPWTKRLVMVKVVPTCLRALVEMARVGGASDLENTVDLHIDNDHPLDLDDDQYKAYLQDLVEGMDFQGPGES
| Oligonucleotide | fitted relative affinity [z-score] |
| --- | --- |
| GACTGACTGGGGTTTCGGGACGTGCTA | 0.535 |
| CCCCTACTGTATTTGGCCAGGTGCTAG | 0.976 |
| TCAAACCTGGGTCTCTGACTGTGCTAG | -0.79 |
| TGTCATATACACATCTTCTGGTGCTAG | 0.646 |
| TTAGGTTTCGGACTAGGTTAGTGCTAG | 5.18 |
| TTAGGTCTCCTTTTCCTTTTGTGCTAG | 6 |
| AGAGAGAGAGAGAGAGAGAGGTGCTAG | -0.865 |
| GCCGGTATCGGTCTCGGGACGTGCTAG | 5 |

Repeated from above (set 5):
| Oligonucleotide | fitted relative affinity [z-score] |
| --- | --- |
| TGTCATATACACATCTTCTGGTGCTAG | 0.646 |
| TTAGGTTTCGGACTAGGTTAGTGCTAG | 5.18 |
| TTAGGTCTCCTTTTCCTTTTGTGCTAG | 6 |
| AGAGAGAGAGAGAGAGAGAGGTGCTAG | -0.865 |
| GCCGGTATCGGTCTCGGGACGTGCTAG | 5 |
